Results from different studies.
Protocols differ between the studies behind these lines.
B1: PUM1 589-1186 (Homo sapiens, UniProt Q14671); chain ISSSAAQAAVAAAAASANGAAGGLAGTTNGPFRPLGTQQPQPQPQQQPNNNLASSSFYGNNSLNSNSQSSSLFSQGSAQPANTSLGFGSSSSLGATLGSALGGFGTAVANSNTGSGSRRDSLTGSSDLYKRTSSSLTPIGHSFYNGLSFSSSPGPVGMPLPSQGPGHSQTPPPSLSSHGSSSSLNLGGLTNGSGRYISAAPGAEAKYRSASSASSLFSPSSTLFSSSRLRYGMSDVMPSGRSRLLEDFRNNRYPNLQLREIAGHIMEFSQDQHGSRFIQLKLERATPAERQLVFNEILQAAYQLMVDVFGNYVIQKFFEFGSLEQKLALAERIRGHVLSLALQMYGCRVIQKALEFIPSDQQNEMVRELDGHVLKCVKDQNGNHVVQKCIECVQPQSLQFIIDAFKGQVFALSTHPYGCRVIQRILEHCLPDQTLPILEELHQHTEQLVQDQYGNYVIQHVLEHGRPEDKSKIVAEIRGNVLVLSQHKFASNVVEKCVTHASRTERAVLIDEVCTMNDGPHSALYTMMKDQYANYVVQKMIDVAEPGQRKIVMHKIRPHIATLRKYTYGKHILAKLEKYYMKNGVDLGPICGPPNGII
B2: boss 32-530 H480D (Drosophila melanogaster, UniProt P22815); sequence looked up; chain CHGADLTSPTKKSAPLRITKPQPTSQQAKPISITTRAPTTVASTTDDEVSSSVDGQLAPLISSTTEGPSSGTTASLVPEICLNGLQLTVNSADEGTVIRKQEEFVKILEGDVVLSVLTKDPDSALFVINRVNQANLIMADFEIGIRAISIDNASLAENLLIQEVQFLQQCTTYSMGIFVDWELYKQLESVIKDLEYNIWPIPGTRAHLFPKVAHLLHQMPWGEKIASVEIATETLEMYNEFMEAARQEHMCLMHFKSDDNVYIMFGNKLASHFKENGTLFSVPTDRTDDEFLADLPNRAFVLMENEIDLSTAVELDATPTALDEILIGKSVLPSRVLSFAGSIIDLMNWLRGSLSKHCKRGEEHDLYVLESCFNFLNFIEDWRTSEYRQAHDTAEILSLLLMRKLGTAMNFQMYQKKVLTLDKITGESRTELREIASQNFVTNVTTYYDYNRDNHTSLELKTKFGQVFNCQYSAGDNRRYPFLFDGESVMFWRIKMDTW
B3: SIR4 744-1358 (Saccharomyces cerevisiae, UniProt P11978); sequence looked up; chain PGKMELVYVSDSDDSSSDNDSLTDLESLSSGESNEIKVTNDLDTSAEKDQIQAGKWFDPVLDWRKSDRELTKNILWRIADKTTYDKETITDLIEQGIPKHSYLSGNPLTSVTNDICSVENYETSSAFFYQQVHKKDRLQYLPLYAVSTFENTNNTEKNDVTNKNINIGKHSQEQNSSSAKPSQIPTVSSPLGFEETKLSTTPTKSNRRVSHSDTNSSKPKNTKENLSKSSWRQEWLANLKLISVSLVDEFPSELSDSDRQIINEKMQLLKDIFANNLKSAISNNFRESDIIILKGEIEDYPMSSEIKIYYNELQNKPDAKKARFWSFMKTQRFVSNMGFDIQKSCEPVSISTSVKPHVVEPEHMADAKIMPKDILQITKKPLMVKNVKPSSPPDVKSLVQLSTMETKTLPEKKQFDSIFNSNKAKIIPGNGKHASENISLSFSRPASYGYFSVGKRVPIVEDRRVKQLDDITDSNTTEILTSVDVLGTHSQTGTQQSNMYTSTQKTELEIDNKDSVTECSKDMKEDGLSFVDIVLSKAASALDEKEKQLAVANEIIRSLSDEVMRNEIRITSLQGDLTFTKKCLENARSQISEKDAKINKLMEKDFQVNKEIKPY
B4: REC107 1-224 (Saccharomyces cerevisiae, UniProt P21651); chain MVARGRTDEISTDVSEANSEHSLMITETSSPFRSIFSHSGKVANAGALEESDKQILEWAGKLELESMELRENSDKLIKVLNENSKTLCKSLNKFNQLLEQDAATNGNVKTLIKDLASQIENQLDKVSTAMLSKGDEKKTKSDSSYRQVLVEEISRYNSKITRHVTNKQHETEKSMRCTQEMLFNVGSQLEDVHKVLLSLSKDMHSLQTRQTALEMAFREKADHA
B5: BZR1 1-109 (Arabidopsis thaliana, UniProt Q8S307); sequence looked up; chain MTSDGATSTSAAAAAAAAAAARRKPSWRERENNRRRERRRRAVAAKIYTGLRAQGDYNLPKHCDNNEVLKALCVEAGWVVEEDGTTYRKGCKPLPGEIAGTSSRVTPYS
B6: LCOR 910-1211 (Homo sapiens, UniProt Q96JN0-3); sequence looked up; chain QTLKNMLDKEVKELRGEIFPSRDPITTAGQPLPGERLEIYVQSKMDEKNAHIPSESIACKRDPEQAKEEPGHIPTQHVEEAVNEVDNENTQQKDDESDAPCSSLGLSSSGSGDAARAPKSVPRPKRLTSSTYNLRHAHSLGSLDASKVTSEKEAAQVNPIMPKENGASESGDPLDEDDVDTVVDEQPKFMEWCAEEENQELIANFNAQYMKVQKGWIQLEKEGQPTPRARNKSDKLKEIWKSKKRSRKCRSSLESQKCSPVQMLFMTNFKLSNVCKWFLETTETRSLVIVKKLNTRLPGDVP
B7: SNU71 382-537 (Saccharomyces cerevisiae, UniProt P53207); chain SNTEPKIKSIRADIMSAENYEEHLEKNRSLYLKELLHLANDVHYDHHRSFKEQEERRDEEDRAKNGNAKELAPIQLSDGKAISAGKAAAITLPEGTVKSENYNADKNVSESSEHVKIKFDFKKAIDHSVESSSEDEGYRESELPPTKPSERSAAED
B8: β-dystroglycan mature (Oryctolagus cuniculus, UniProt Q28685); N-linked glycans; sequence looked up; chain SIVVEWTNNTLPLEPCPKEQITGLSRRIAEDNGQPRPAFTNALEPDFKATSIAITGSGSCRHLQFIPVAPPGIPSSVTPPTEVPDRDPEKSSEDDVYLHTVIPAVVVAAILLIAGIIAMICYRKKRKGKLTLEDQATFIKKGVPIIFADELDDSKPPPSSSMPLILQEEKAPLPPPEYPSQSVPETTPLNQDTVGEYTPLRDEDPNAPPYQPPPPFTAPMEGKGSRPKNMTPYRSPPPYVPP
B9: PUM1 701-774 (Homo sapiens, UniProt Q14671); sequence looked up; chain TGSGSRRDSLTGSSDLYKRTSSSLTPIGHSFYNGLSFSSSPGPVGMPLPSQGPGHSQTPPPSLSSHGSSSSLNL
B10: FliG middle domain 104-193 (Thermotoga maritima, UniProt Q9WY63); sequence looked up; chain QVKPFSFVRDTDPVQLVNFLQSEHPQTIAVVLSYLDPPVAAQILGALPEELQTEVLKRIALLERTSPEVVKEIERNLEKKISGFVSRTFS
B11: cox13 (Schizosaccharomyces pombe, UniProt O74471); sequence looked up; chain SNEAKVNWLEEVQAEEEHAKRSSEFWKKVTYYIGGPALILASANAYYIYCKHQEHAKHVEDTDPGYSFENLRFKKYPWGDGSKTLFWNDKVNHLKKDDE
B12: SF3B1 454-1304 R625H (Homo sapiens, UniProt O75533); chain KSVNDQPSGNLPFLKPDDIQYFDKLLVDVDESTLSPEEQKERKIMKLLLKIKNGTPPMRKAALRQITDKAREFGAGPLFNQILPLLMSPTLEDQERHLLVKVIDRILYKLDDLVRPYVHKILVVIEPLLIDEDYYARVEGREIISNLAKAAGLATMISTMRPDIDNMDEYVHNTTARAFAVVASALGIPSLLPFLKAVCKSKKSWQARHTGIKIVQQIAILMGCAILPHLRSLVEIIEHGLVDEQQKVRTISALAIAALAEAATPYGIESFDSVLKPLWKGIRQHRGKGLAAFLKAIGYLIPLMDAEYANYYTREVMLILIREFQSPDEEMKKIVLKVVKQCCGTDGVEANYIKTEILPPFFKHFWQHRMALDRRNYRQLVDTTVELANKVGAAEIISRIVDDLKDEAEQYRKMVMETIEKIMGNLGAADIDHKLEEQLIDGILYAFQEQTTEDSVMLNGFGTVVNALGKRVKPYLPQICGTVLWRLNNKSAKVRQQAADLISRTAVVMKTCQEEKLMGHLGVVLYEYLGEEYPEVLGSILGALKAIVNVIGMHKMTPPIKDLLPRLTPILKNRHEKVQENCIDLVGRIADRGAEYVSAREWMRICFELLELLKAHKKAIRRATVNTFGYIAKAIGPHDVLATLLNNLKVQERQNRVCTTVAIAIVAETCSPFTVLPALMNEYRVPELNVQNGVLKSLSFLFEYIGEMGKDYIYAVTPLLEDALMDRDLVHRQTASAVVQHMSLGVYGFGCEDSLNHLLNYVWPNVFETSPHVIQAVMGALEGLRVAIGPCRMLQYCLQGLFHPARKVRDVYWKIYNSIYIGSQDALIAHYPRIYNDDKNTYIRYELDYIL
B13: POL31 (Saccharomyces cerevisiae, UniProt P46957); sequence looked up; chain MDALLTKFNEDRSLQDENLSQPRTRVRIVDDNLYNKSNPFQLCYKKRDYGSQYYHIYQYRLKTFRERVLKECDKRWDAGFTLNGQLVLKKDKVLDIQGNQPCWCVGSIYCEMKYKPNVLDEVINDTYGAPDLTKSYTDKEGGSDEIMLEDESGRVLLVGDFIRSTPFITGVVVGILGMEAEAGTFQVLDICYPTPLPQNPFPAPIATCPTRGKIALVSGLNLNNTSPDRLLRLEILREFLMGRINNKIDDISLIGRLLICGNSVDFDIKSVNKDELMISLTEFSKFLHNILPSISVDIMPGTNDPSDKSLPQQPFHKSLFDKSLESYFNGSNKEILNLVTNPYEFSYNGVDVLAVSGKNINDICKYVIPSNDNGESENKVEEGESNDFKDDIEHRLDLMECTMKWQNIAPTAPDTLWCYPYTDKDPFVLDKWPHVYIVANQPYFGTRVVEIGGKNIKIISVPEFSSTGMIILLDLETLEAETVKIDI
B14: SNAPC1 (Homo sapiens, UniProt Q16533); chain MGTPPGLQTDCEALLSRFQETDSVRFEDFTELWRNMKFGTIFCGRMRNLEKNMFTKEALALAWRYFLPPYTFQIRVGALYLLYGLYNTQLCQPKQKIRVALKDWDEVLKFQQDLVNAQHFDAAYIFRKLRLDRAFHFTAMPKLLSYRMKKKIHRAEVTEEFKDPSDRVMKLITSDVLEEMLNVHDHYQNMKHVISVDKSKPDKALSLIKDDFFDNIKNIVLEHQQWHKDRKNPSLKSKTNDGEEKMEGNSQETERCERAESLAKIKSKAFSVVIQASKSRRHRQVKLDSSDSDSASGQGQVKATRKKEKKERLKPAGRKMSLRNKGNVQNIHKEDKPLSLSMPVITEEEENESLSGTEFTASKKRRKH
Chain of UniProt Q05471 (whole entry, looked up): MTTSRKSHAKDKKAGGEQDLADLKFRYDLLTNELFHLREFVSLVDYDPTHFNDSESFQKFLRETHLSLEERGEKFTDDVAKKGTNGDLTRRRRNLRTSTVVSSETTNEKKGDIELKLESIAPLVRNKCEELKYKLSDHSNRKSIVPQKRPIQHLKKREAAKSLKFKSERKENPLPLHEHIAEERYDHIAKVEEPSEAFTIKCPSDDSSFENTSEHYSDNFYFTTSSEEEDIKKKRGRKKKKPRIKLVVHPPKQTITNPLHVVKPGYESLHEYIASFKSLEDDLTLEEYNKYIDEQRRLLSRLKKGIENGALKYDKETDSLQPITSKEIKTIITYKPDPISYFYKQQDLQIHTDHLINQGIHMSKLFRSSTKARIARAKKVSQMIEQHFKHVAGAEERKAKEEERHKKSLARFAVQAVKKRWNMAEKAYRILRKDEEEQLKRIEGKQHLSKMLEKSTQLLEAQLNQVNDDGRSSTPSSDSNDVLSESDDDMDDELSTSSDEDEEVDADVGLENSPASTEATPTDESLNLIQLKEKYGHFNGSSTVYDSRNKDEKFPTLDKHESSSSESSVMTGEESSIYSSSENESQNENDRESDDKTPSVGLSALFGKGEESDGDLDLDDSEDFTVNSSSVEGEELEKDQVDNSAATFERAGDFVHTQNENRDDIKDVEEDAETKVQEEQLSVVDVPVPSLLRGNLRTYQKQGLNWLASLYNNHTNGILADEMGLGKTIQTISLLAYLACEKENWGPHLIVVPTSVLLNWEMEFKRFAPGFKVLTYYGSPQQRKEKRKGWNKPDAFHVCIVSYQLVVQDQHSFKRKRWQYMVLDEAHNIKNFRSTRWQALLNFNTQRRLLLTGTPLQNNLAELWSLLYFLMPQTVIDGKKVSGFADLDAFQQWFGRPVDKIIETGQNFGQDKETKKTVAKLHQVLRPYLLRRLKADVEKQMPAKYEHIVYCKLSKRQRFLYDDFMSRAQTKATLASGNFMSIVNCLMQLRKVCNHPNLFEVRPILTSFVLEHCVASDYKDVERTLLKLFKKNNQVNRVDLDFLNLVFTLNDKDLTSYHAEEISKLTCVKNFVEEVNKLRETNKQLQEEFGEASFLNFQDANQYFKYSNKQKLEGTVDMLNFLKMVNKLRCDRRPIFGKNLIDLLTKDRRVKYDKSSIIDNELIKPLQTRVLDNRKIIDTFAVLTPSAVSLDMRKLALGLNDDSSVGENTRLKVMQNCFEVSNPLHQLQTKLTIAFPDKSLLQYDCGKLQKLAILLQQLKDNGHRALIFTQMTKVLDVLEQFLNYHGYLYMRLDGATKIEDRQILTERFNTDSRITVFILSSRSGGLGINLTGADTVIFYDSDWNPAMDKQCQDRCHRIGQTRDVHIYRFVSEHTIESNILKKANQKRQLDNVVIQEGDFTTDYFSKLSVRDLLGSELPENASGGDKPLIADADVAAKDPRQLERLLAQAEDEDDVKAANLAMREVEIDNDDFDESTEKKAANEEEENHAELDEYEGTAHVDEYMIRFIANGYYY
Chain of UniProt P15436 (whole entry, looked up): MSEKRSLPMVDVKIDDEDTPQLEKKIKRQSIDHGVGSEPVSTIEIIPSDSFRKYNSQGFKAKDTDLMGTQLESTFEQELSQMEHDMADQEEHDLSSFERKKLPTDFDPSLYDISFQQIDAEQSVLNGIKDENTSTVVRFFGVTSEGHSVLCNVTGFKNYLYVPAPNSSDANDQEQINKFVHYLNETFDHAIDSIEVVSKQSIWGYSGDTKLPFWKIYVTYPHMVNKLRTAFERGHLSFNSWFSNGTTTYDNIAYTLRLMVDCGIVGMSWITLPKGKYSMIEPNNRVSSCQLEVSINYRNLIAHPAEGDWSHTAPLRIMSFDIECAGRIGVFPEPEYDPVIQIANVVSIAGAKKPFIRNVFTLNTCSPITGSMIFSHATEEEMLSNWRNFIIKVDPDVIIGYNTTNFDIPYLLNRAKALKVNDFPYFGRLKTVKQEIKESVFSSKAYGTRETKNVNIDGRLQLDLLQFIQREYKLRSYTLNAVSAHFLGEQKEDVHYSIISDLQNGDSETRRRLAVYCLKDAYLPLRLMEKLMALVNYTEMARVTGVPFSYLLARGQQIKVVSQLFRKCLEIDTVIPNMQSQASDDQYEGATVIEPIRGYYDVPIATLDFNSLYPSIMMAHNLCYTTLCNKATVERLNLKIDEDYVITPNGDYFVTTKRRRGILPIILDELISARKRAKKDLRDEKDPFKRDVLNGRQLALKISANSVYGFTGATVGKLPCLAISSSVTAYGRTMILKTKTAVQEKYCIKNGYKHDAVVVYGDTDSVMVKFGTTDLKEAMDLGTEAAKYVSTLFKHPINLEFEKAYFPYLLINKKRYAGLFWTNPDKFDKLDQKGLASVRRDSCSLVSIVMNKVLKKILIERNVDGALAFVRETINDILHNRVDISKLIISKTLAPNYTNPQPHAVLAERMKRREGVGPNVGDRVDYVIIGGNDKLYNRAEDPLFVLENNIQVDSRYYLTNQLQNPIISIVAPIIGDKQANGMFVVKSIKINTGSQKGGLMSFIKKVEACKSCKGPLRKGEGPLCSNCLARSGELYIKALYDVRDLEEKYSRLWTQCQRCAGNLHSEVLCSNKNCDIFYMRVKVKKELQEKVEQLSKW
Chain of UniProt P33203 (whole entry, looked up): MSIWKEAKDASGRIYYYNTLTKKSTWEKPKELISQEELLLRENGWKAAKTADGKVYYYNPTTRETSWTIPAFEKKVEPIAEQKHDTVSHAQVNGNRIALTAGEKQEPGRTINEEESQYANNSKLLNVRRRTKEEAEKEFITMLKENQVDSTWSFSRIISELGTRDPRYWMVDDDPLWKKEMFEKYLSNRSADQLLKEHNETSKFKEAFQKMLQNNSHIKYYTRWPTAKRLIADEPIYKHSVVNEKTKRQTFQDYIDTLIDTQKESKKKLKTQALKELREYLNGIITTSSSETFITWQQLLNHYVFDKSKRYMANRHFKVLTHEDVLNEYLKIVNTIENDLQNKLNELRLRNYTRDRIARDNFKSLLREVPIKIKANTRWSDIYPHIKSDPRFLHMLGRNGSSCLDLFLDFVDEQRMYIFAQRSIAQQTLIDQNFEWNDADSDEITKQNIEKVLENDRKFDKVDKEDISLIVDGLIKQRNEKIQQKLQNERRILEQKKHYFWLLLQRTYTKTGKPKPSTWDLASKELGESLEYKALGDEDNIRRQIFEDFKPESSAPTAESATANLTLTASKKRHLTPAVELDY
Chain of UniProt Q7RTV0 (whole entry, looked up): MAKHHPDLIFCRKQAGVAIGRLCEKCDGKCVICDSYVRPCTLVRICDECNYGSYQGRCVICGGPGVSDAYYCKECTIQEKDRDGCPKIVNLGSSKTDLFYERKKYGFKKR
Chain of UniProt Q5SXM2 (whole entry, looked up): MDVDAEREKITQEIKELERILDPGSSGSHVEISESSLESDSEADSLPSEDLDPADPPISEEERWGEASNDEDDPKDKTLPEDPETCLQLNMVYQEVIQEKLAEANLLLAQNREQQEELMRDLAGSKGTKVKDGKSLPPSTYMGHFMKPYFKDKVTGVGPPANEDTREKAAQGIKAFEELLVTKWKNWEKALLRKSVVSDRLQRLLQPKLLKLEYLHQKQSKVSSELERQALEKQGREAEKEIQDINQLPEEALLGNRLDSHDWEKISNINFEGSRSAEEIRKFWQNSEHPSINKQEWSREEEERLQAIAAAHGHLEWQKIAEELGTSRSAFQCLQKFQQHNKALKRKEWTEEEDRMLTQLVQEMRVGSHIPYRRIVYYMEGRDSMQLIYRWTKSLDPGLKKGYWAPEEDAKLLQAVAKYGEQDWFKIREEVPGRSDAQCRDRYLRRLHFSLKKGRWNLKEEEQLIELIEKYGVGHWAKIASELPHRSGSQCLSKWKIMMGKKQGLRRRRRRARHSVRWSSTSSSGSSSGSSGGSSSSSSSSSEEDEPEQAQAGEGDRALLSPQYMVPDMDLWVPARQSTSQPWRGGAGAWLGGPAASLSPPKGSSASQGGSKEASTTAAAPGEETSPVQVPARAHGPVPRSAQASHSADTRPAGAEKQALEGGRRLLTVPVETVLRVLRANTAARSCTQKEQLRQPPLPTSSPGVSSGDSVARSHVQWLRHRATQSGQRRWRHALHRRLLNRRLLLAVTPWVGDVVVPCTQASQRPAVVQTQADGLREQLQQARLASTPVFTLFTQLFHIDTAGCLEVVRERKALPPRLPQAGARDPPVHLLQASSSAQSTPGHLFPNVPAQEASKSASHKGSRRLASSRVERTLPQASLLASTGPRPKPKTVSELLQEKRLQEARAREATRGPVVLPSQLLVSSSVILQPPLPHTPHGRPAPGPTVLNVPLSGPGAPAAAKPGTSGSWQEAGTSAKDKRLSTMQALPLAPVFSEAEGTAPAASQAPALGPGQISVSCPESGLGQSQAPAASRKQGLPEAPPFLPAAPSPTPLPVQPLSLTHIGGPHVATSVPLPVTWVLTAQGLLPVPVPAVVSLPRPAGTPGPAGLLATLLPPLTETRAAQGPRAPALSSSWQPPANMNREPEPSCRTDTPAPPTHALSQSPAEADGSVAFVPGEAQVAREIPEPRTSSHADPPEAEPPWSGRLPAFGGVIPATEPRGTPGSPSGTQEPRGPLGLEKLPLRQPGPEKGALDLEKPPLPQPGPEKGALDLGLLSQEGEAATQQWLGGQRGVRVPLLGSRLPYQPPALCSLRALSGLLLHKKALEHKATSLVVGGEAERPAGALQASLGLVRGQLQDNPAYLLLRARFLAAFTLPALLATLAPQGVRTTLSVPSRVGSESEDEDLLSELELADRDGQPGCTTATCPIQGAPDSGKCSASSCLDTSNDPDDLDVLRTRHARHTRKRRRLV
Chain of UniProt Q9WZE6 (whole entry, looked up): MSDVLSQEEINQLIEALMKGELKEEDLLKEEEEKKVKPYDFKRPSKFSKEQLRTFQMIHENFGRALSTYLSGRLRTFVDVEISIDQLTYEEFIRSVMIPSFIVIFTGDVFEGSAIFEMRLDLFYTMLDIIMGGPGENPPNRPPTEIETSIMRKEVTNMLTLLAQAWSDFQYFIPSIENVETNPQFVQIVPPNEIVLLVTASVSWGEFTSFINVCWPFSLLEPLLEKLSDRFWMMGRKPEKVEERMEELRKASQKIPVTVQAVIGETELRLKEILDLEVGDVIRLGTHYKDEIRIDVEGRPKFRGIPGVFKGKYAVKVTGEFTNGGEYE

| Substance | tested on | test | system | conditions | scale | measurement | value |
| --- | --- | --- | --- | --- | --- | --- | --- |
| B1 (PUM1 589-1186) | CNOT1/CNOT2/CNOT3 C-terminal NOT module 1833-2361 | pull-down | – | – | – | binding | binds |
| RECQL5 (Homo sapiens, UniProt O94762) | SMC3 (Homo sapiens, UniProt Q9UQE7) | cross-linking MS | – | together with: DSSO | – | cross-linked residues | K939 to K280 |
| B2 (boss 32-530 H480D) | sev extracellular domain 123-2119 furin site removed (Drosophila melanogaster, UniProt P13368) | SPR | – | – | – | binding | binds |
| B3 (SIR4 744-1358) | SIR3 1-850 (Saccharomyces cerevisiae, UniProt P06701) | cross-linking mass spectrometry | – | – | – | binding | binds |
| B4 (REC107 1-224) | SPP1 (Saccharomyces cerevisiae, UniProt Q03012) | pull-down | – | – | – | binding | binds |
| VMRLQSETSV | human MAGI1-2/6 PDZ construct (MBP fusion) | automated holdup | peptide, crude extract | concentration not given, corrected by standard peak, unit not given | relative to: biotin control resin, higher = stronger binding | binding intensity | 0.473 |
| B5 (BZR1 1-109) | BRM 689-952 (Arabidopsis thaliana, UniProt Q6EVK6) | GST pull-down | – | – | – | binding | binds |
| QSARYRDTEL | human MAGI1-2/6 PDZ construct (MBP fusion) | automated holdup | peptide, crude extract | concentration not given, corrected by standard peak, unit not given | relative to: biotin control resin, higher = stronger binding | binding intensity | 0.0397 |
| B6 (LCOR 910-1211) | SUZ12 (Homo sapiens, UniProt Q15022) | pull-down | – | – | – | binding | binds |
| B7 (SNU71 382-537) | PRP40 351-552 (Saccharomyces cerevisiae, UniProt P33203) | pull-down | – | – | – | binding | binds |
| B8 (β-dystroglycan mature) | DAG1 alpha-dystroglycan (Oryctolagus cuniculus, UniProt Q28685) | cryo-EM structure | – | – | – | binding | binds |
| VPS72 (Saccharomyces cerevisiae, UniProt Q03388) | SWR1 (Saccharomyces cerevisiae, UniProt Q05471) | cryo-EM | – | – | – | binding | binds |
| HLCS (Homo sapiens, UniProt P50747) | Histone H3.2 (Homo sapiens, UniProt Q71DI3) | limited proteolysis | – | – | – | binding | binds |
| B9 (PUM1 701-774) | CNOT1/CNOT2/CNOT3 NOT module 1833-2361 | pull-down | – | – | – | binding | binds |
| OsMPK3-YFP (Oryza sativa, UniProt Q10N20) | OsCPK13 full length, GST fusion (Oryza sativa, UniProt Q9FXQ3) | pull-down | – | – | – | binding | binds |
| B10 (FliG middle domain 104-193) | fliM 1-229 (Thermotoga maritima, UniProt Q9WZE6) | NMR titration | – | – | – | binding | binds |
| B11 (cox13) | rcf2 (Schizosaccharomyces pombe, UniProt Q9P3B2) | cryo-EM | – | – | – | binding | binds |
| B12 (SF3B1 454-1304 R625H) | PHF5A (Homo sapiens, UniProt Q7RTV0) | cryo-EM | – | – | – | binding | binds |
| B13 (POL31) | POL3 (Saccharomyces cerevisiae, UniProt P15436) | SAXS | – | – | – | binding | binds |
| B14 (SNAPC1) | SNAPC4 (Homo sapiens, UniProt Q5SXM2) | cross-linking | – | – | – | binding | binds |

Repeated from above:
| Substance | tested on | test | system | conditions | scale | measurement | value |
| --- | --- | --- | --- | --- | --- | --- | --- |
| RECQL5 (Homo sapiens, UniProt O94762) | SMC3 (Homo sapiens, UniProt Q9UQE7) | cross-linking MS | – | together with: DSSO | – | cross-linked residues | K939 to K280 |
